Published values gathered from unrelated publications.
A part holds a random share of what one study measured. Positions count from the first letter of the parent shown.

Study 1 — method: RNA Bind-n-Seq; molecule type: RNA; matrix: in vitro; concentration: 100 nM; reference: input RNA pool; direction: higher = stronger binding; quantity: bound/input enrichment
Target: RING finger protein unkempt homolog, zinc fingers 1-6, SBP tag (UNK, Homo sapiens, UniProt Q9C0B0, residues 30-357)
UniProt Q9C0B0, sequence (30-357, looked up): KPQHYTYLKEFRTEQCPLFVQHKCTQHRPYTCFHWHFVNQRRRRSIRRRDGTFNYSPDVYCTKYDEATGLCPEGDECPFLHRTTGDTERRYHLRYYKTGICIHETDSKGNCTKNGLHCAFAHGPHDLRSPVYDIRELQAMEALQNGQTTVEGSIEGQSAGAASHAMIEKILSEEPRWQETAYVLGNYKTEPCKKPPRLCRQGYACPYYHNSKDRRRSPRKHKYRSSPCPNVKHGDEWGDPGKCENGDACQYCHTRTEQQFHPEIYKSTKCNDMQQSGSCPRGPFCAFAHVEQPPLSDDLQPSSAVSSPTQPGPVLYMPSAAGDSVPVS
Notes: RNA with constant flanks, vertebrate orthologous sites, ends assumed
Shared flanks, not repeated: GGGAGUUCUACAGUCCGACGAUC … CAACAGAGGAUUGAGCAUCA
AGCCAUGUUUUCACAUUUCCUGUAAAUAAUGGAUAAUCAUUUUUUUAAAAUUUUAUUUUCAAGUGCUGUUAUAACACUGUGGAUAGACCAUAAAUGUACUUGCUGAAUUCAUUCAUUUUU: 0.263 ratio
ACCUUUUGUAGGCCAAAUACCCUCCUUCUACUGCUUCUGCCAACUGGAAGCACAGAAAACUAGAAUUUCAUUUUAUUUGUUAAAAAAAAAAAUUGAUUUCUUGUAACAUCCACUAGGAAU: 0.536 ratio
CCAGCUUAAUGAAAACUGUUUUACGACAUAUGACUUAAAAAGAAAAAGAAAGAAACAGCCUGGUUUUUGUCUGUCAAAGGAAGAGGAAAAAAAAGACCAUUGAAUCCAAAGCACACUGUA: 0.567 ratio
GUUGUGACCCAUUUAACAUACACAAGAAAUUAGCCAAAAAAAAUUUGCAUGUAAUUGACUUAGAUGAUGCCACUUUUCUGAGUGCUAAAUUUGGAAGACAGCUUGUACCUGGUUGGAAGC: 1.35 ratio
CAGUUUAGAUAAUCUUUUUAUUUUUUUUCUUUUCCCUCAAUCCUUUUUUAUUUUUAAAACUAGUUCUUUUGUAAUGUGGUGUUCAAAACAGAAUUGAAAACUGGCACCCCAUCUCUUUGA: 7.44 ratio
AGGAAAUGUUGGCUGCAAACCCUCAGGAUCGUCCAGAUGCAUUCGAGCUAGAACUUAGAUUAGUCCAAAUUGCUUUUAAAGAUAGUGGCUGGGACACGUGACACAUGGAUUGCUGGGAAA: 1.61 ratio
AAAUCAGUAGAAUUACAUAAUACUAAAGUUGCAGUGAAAGGAUUUCCAAGUAUGUGUUGGUAGUUACUAAAAGAAUUAUAGCUGUUAUUGCCUUGUAUUUAUAGCCCUUGUUUCAGGUUU: 1.04 ratio
UUCAGGCUCAACUGACUGUUUCACAGCAUUCCUUACACAGCUAUUUAACAAGUACAAGUGGAGUUAAUUUUCAGGAUACAUCUAGGCACUCAGCAUUAUCCUGCAGUCCAGUUGGAGAUG: 0.3 ratio
GUUGUGACCCAUUUAACAUACACAAAAAGCUAGCCAAAAAGAAUCUACAUGUAAUUGACUUAGAUGAUGCCACUUUUCUGAGUGCAAAGUUUGGAAGGCAGCUCGUACCUGGUUGGAAGC: 0.804 ratio
AAAUUUAUUUCAUGCCCUGGACUCCCUAUCGUACUGACACUUUAAUAGAAUAUGCUUCUUUGGAAGACUUUCAAAACAGUCGCCAAACAACAACAUAUAAACUACCAAACCGAGUAGAUG: 0.628 ratio
UGGGCGCCCUCUUUGGGGAGCUGCUGGCCGCUUAGCGUUGUUUGAUUUUUGACCUUGACAUAGUAGAUAGGCUUGUGGUUUUUUUAAUUUAAACAUAUUAAGACUUAAUUCACUAAAAUU: 0.813 ratio

Study 2 — target: Sox, HMG box (Pigoraptor chileana); method: Spec-seq; molecule type: double-stranded DNA, one strand shown; matrix: in vitro; concentration: not given; notes: whole probe, mean of replicates; reference: not given; direction: lower = stronger binding; quantity: relative binding energy; shared flanks, not repeated: GAGTCGTCTCGTCAGCAC … CCGTAGAGCACTCAGGTC
Residues (chain): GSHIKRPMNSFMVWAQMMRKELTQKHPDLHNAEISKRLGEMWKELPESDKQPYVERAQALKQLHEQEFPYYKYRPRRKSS
CATGGGG: 0.73 ln ratio
GGAGGTT: 1.59 ln ratio
TCCAGTT: 0.42 ln ratio
CATGGTA: 0.496 ln ratio
CTGCGTT: 1.07 ln ratio
TGCGGTT: 0.543 ln ratio
AACGGTT: -0.956 ln ratio
CGTCGTT: 1.21 ln ratio
CATCAGT: 0.105 ln ratio
ATCCGTT: 0.399 ln ratio
GAGAGTT: 1.44 ln ratio
GCTCGTT: 1.18 ln ratio
CGCAGTT: 0.412 ln ratio
AGGTGTT: 0.0793 ln ratio
GTCCGTT: 1.27 ln ratio

Study 3 — target: BATF, bZIP domain (human); method: DHFR protein complementation; matrix: yeast; reference: wild-type JUN-FOS pair; direction: higher = stronger binding; quantity: binding fitness
Notes: single substitutions, most at no-binding floor
Starting sequence: JUN, bZIP domain (human); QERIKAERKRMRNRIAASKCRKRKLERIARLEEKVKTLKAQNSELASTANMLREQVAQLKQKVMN; partner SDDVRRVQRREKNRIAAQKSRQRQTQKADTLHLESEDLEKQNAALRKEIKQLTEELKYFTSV
L31Y: -0.0981 natural log
N42P: -1.25 natural log
N42W: -0.31 natural log
T48L: -0.0639 natural log
K36L: -0.0464 natural log
E32W: -0.362 natural log
A46P: -1.26 natural log
K34Y: -0.0195 natural log
A57T: -0.0448 natural log

Study 4 — method: DHFR PCA, deep sequencing; matrix: yeast; added: (+)-ABA 710 µM; reference: wild-type fitted maximum; direction: higher = stronger binding; quantity: relative binding score
Target: ABI1, truncated, D143A, DHFR fusion (Arabidopsis thaliana)
Notes: methotrexate growth selection, single substitutions
Starting sequence: PYL1, truncated, DHFR fusion (Arabidopsis thaliana); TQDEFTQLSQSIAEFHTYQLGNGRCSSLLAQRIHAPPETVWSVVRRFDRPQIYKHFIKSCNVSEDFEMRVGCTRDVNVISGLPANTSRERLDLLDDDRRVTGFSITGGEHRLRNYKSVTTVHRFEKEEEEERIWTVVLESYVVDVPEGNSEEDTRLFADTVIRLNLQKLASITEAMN; partner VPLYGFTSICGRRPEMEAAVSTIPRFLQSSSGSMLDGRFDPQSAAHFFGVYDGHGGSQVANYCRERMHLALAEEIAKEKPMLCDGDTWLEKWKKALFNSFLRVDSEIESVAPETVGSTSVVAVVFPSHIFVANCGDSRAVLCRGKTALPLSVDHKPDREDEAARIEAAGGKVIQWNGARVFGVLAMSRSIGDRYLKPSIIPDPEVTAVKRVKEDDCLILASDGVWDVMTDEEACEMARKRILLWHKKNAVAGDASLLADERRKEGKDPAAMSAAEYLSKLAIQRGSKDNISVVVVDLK
R163P: -6.44%
D92A: 82.1%
F56Y: 98.2%
S117K: 16%
L94F: 99.5%
E130V: 109%
Q7N: 107%
H55Q: 115%
A35W: 23.9%
T101H: 93.9%

Study 5 — target: CCND3, cyclin fold, Cln2 fusion (human); method: yeast growth competition, sequencing; matrix: yeast; notes: weak parent motif; reference: not given; direction: higher = stronger binding; quantity: normalised enrichment score
Starting sequence: SAMHD1 docking peptide (human); ASKSRVQLFKDDP
D12P: 0.117
S2V: 0.241
R5M: -0.258
V6M: -0.0549
D12R: 0.0549
K3P: -0.117
K10P: 0.0601
L8W: 0.182
F9W: 0.0795
D11R: -0.198
F9H: 0.186
S4A: 0.165
F9C: 0.347
Q7T: 0.193
K10R: 0.0873
D12T: 0.0571
K3M: 0.13
V6I: -0.396
S4P: -0.242
K10E: 0.269
S4F: 0.13
K10S: 0.186
S2L: 0.0796
V6R: 0.199
S4L: 0.06

Study 6 — method: protein-binding microarray; molecule type: double-stranded DNA, one strand shown; matrix: in vitro; concentration: 2200 nM top; notes: 60-bp whole probe; added: salmon DNA 0.4 mg/ml; reference: random background probes; direction: higher = stronger binding; quantity: fitted relative affinity; shared flanks, not repeated: GCCTAGCAC … GTCTTGATTCGCTTGACGCTGCTG
Target: Interferon regulatory factor 7, full length, phosphomimetic (IRF7, Homo sapiens, UniProt Q92985, residues 1-503, S471D/S472D/S475D/S476D/S477D/S483D/S484D/S487D)
UniProt Q92985, sequence (whole entry, unmodified, looked up): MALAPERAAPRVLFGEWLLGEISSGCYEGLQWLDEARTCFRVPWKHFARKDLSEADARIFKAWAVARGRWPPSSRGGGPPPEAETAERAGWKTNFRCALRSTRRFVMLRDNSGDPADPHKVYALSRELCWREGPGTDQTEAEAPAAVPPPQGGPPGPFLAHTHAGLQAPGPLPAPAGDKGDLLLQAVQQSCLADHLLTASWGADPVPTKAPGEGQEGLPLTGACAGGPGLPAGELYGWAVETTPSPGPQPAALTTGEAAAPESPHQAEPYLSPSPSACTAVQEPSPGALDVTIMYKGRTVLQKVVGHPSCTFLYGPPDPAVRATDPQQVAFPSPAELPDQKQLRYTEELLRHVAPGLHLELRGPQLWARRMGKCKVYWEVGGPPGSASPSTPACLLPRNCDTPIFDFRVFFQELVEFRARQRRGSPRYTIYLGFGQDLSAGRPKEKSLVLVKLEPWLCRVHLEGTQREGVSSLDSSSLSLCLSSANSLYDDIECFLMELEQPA
GACGATTTCAGTATCGAGAAGTGCTAG: 0.622 z-score
GACGGTTTCCTTCTCCGGACGTGCTAG: 2.88 z-score
TTAGGTCTCCTACGGCTTTAGTGCTAG: 0.282 z-score
TTAGATTTCAGTTTCGACTAGTGCTAG: 5.11 z-score
TTAGATATCAGTTTCTATTAGTGCTAG: 2.31 z-score
GACGATATCGAGTATCGAGACGTGCTA: 0.121 z-score
TCACTTTGGCCTCTAGGACTGTGCTAG: 1.32 z-score
TCATCTTTTCTGTTGTCACTGTGCTAG: 3.11 z-score
TTAGGTTTCCTTTTCCTGTAGTGCTAG: 5.09 z-score
CGAGATCTCCGAGATGCCTTCGTGCTA: 0.18 z-score
TTAGGTATCCTAGTGCTTTAGTGCTAG: 0.158 z-score
TTAGATTCCGGGTATCGATTAGTGCTA: 1.11 z-score
GACGGTATCCTGTTCCTGACGTGCTAG: 1.19 z-score

Further values, each from its own experiment
PhoQ, residues 284 288 289 292 302 303 SSLVEF  fold induction (PhoP, residues 12 14 15 18 19 AQCLL (Escherichia coli, UniProt P23836); Sort-seq, item: YFP reporter; E. coli; PhoQ-PhoP variant library, added: 10 µM Mg2+; reference: high Mg2+ state, higher = stronger signaling): 2.35
